Results from different studies.
Every numbered part comes from another study and shows a few of its results, in no order.
Sequence of UniProt P27361 (whole entry, looked up): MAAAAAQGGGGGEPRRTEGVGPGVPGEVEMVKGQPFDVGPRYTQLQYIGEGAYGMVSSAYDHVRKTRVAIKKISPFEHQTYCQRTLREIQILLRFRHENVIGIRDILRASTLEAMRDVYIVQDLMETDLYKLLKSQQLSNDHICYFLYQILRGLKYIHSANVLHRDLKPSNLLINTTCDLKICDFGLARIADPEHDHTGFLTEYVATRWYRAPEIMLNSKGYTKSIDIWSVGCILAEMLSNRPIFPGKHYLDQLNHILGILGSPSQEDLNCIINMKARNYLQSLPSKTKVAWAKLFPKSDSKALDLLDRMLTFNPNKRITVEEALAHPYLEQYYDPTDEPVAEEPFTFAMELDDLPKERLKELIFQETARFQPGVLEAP
Sequence of UniProt P49841 (whole entry, looked up): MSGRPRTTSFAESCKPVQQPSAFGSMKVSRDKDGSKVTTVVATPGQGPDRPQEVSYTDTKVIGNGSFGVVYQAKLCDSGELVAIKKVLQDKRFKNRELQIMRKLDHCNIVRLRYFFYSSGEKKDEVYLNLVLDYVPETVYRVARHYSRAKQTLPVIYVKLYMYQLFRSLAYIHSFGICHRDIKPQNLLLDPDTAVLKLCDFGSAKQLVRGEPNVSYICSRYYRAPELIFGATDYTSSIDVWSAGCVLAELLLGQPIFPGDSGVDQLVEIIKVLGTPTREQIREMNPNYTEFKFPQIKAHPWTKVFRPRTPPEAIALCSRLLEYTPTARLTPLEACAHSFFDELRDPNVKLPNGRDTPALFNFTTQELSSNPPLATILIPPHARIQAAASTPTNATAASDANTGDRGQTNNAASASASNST
Sequence of UniProt P42685 (whole entry, looked up): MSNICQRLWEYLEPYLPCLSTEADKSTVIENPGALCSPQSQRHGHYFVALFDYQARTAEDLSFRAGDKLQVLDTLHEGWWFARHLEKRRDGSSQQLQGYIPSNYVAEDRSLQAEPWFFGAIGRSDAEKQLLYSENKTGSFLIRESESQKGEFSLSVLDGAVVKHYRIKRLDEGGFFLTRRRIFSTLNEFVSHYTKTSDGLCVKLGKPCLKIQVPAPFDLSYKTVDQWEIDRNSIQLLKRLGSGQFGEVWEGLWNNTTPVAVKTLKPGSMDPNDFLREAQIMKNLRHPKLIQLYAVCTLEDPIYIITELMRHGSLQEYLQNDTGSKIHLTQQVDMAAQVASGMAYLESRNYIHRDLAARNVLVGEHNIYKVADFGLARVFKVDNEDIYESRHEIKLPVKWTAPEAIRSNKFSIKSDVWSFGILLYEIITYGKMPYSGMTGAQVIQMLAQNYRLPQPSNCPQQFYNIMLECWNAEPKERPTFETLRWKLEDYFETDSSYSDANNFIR
Sequence of UniProt Q9UK32 (whole entry, looked up): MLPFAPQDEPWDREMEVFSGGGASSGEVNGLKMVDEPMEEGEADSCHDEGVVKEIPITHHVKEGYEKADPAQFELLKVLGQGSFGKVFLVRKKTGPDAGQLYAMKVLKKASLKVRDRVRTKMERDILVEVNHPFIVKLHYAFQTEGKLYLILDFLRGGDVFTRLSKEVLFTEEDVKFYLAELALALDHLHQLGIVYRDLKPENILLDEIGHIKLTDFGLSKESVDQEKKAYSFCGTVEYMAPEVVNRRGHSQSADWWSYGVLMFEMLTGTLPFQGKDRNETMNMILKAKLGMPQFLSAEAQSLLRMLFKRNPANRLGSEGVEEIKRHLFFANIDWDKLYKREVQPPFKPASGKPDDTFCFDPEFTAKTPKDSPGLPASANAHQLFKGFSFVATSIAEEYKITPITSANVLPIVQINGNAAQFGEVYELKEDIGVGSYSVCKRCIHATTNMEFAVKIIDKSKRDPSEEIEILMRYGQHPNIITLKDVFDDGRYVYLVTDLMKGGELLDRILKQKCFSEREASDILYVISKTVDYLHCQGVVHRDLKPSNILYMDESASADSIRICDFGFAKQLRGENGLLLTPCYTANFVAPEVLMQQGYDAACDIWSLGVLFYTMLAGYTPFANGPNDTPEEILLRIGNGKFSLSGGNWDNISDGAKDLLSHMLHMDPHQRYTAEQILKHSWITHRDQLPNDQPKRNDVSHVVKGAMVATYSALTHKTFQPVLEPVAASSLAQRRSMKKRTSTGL
Sequence of UniProt P06239 (whole entry, looked up): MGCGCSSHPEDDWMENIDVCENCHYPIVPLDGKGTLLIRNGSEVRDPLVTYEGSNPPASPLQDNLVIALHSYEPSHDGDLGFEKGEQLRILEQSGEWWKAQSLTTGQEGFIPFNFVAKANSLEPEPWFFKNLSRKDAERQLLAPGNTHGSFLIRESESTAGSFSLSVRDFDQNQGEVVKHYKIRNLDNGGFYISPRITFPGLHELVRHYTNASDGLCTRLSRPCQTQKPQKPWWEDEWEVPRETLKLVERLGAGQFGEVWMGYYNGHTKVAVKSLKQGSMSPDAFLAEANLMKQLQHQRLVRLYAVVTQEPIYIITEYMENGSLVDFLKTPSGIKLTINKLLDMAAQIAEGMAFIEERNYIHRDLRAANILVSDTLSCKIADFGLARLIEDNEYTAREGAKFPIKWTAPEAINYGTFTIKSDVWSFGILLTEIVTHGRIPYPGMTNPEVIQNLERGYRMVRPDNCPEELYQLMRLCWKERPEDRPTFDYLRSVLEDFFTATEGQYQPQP
Sequence of UniProt P29320 (whole entry, looked up): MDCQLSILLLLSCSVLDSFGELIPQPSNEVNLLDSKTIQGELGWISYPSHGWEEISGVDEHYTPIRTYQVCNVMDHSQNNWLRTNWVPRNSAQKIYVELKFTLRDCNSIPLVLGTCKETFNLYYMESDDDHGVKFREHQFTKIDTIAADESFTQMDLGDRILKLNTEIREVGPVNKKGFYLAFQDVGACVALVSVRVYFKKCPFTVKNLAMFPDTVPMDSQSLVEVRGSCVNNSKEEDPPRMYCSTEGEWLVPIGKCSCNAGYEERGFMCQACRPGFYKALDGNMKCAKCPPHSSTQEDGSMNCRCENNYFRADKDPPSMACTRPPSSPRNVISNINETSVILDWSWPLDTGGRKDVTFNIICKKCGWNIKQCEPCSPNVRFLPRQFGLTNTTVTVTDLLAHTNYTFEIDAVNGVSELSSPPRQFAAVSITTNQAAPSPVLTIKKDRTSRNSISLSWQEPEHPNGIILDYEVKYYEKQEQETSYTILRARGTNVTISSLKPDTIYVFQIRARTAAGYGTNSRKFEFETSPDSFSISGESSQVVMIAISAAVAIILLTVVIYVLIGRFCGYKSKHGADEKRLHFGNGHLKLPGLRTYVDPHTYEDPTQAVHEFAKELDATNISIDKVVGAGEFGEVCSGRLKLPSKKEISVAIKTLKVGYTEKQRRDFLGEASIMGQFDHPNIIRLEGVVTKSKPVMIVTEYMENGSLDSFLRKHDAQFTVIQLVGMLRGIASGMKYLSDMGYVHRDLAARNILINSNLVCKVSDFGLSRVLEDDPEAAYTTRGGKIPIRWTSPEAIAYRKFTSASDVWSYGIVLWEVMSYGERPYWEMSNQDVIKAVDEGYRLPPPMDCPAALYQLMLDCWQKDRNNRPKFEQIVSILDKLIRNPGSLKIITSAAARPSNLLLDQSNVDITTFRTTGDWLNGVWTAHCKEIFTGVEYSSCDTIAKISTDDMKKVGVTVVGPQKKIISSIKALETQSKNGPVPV
Sequence of UniProt Q8IYT8 (whole entry, looked up): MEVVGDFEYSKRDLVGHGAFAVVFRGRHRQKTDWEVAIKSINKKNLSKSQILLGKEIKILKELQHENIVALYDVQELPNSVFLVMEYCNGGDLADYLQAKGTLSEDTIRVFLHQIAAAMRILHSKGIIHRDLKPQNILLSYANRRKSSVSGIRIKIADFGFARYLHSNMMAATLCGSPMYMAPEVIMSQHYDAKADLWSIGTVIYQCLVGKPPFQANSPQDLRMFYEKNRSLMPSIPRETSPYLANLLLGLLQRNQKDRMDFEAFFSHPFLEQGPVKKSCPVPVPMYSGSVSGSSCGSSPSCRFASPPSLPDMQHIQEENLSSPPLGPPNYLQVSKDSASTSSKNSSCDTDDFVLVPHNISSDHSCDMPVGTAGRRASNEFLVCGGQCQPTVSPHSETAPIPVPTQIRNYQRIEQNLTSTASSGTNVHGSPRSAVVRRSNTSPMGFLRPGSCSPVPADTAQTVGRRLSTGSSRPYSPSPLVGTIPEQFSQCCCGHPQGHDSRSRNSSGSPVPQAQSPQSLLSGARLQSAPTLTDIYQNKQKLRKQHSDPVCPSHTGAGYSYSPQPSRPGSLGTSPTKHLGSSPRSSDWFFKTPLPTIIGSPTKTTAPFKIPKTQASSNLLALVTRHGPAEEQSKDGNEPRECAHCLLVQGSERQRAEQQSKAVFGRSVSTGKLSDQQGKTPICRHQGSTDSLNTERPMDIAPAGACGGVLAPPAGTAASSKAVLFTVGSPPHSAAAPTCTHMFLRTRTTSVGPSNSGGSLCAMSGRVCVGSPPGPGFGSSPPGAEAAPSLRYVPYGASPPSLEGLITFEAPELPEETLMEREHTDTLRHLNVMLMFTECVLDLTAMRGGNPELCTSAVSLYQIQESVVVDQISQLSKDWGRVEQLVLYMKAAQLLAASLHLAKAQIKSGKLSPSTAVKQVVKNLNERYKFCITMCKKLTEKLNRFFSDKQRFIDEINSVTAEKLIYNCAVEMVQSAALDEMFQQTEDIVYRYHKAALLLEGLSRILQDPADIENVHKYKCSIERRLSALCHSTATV
Sequence of UniProt Q9HC98 (whole entry, looked up): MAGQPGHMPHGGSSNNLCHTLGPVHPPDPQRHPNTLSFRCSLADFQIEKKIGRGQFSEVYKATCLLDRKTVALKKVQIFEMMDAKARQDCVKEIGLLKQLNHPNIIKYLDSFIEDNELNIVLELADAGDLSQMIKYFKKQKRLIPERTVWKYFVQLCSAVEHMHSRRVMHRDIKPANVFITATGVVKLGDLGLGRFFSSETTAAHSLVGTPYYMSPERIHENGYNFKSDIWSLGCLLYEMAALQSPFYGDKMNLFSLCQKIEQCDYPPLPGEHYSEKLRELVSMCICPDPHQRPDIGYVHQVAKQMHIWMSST

Set 1 — technique: EMSA with sequencing; form: double-stranded DNA, one strand shown; medium: in vitro; tested at: 10 and 20 nM; relative to: negative control set to 0; reading: higher = stronger binding
Target: Hepatocyte nuclear factor 3-alpha (Foxa1, Mus musculus, UniProt P35582, residues 1-468, full length assumed)
Notes: whole designed probe, mean of two concentrations, ends assumed
Residues (chain): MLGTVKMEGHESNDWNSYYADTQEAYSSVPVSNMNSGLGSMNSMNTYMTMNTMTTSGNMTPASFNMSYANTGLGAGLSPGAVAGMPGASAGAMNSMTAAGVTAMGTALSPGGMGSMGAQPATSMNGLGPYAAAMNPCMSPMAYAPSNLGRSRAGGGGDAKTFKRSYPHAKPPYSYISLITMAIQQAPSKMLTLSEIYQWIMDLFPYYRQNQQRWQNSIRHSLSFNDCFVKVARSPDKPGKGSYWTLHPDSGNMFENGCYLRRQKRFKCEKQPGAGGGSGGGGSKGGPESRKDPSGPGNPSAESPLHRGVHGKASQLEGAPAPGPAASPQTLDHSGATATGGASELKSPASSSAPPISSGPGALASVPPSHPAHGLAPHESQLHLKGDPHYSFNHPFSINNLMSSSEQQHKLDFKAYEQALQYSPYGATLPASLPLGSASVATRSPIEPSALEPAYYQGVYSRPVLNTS
| Strand | normalised bound fraction [ratio] |
| --- | --- |
| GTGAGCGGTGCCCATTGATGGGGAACATCTTCCCCCTCTTCCTTGCCCCACCAGTTTGCCTTCCCGGGTTATTTGCAGATAGGAAAATAAATAAAGCCGGCATTCGTTAACCCTCTTCTGGCGCAAACTGCTGTTTGCTCTGGATGAATCATGGTCCTTTGGCGACGCCAGGCTCCGGGAGAGCAAAGCACCGTGTCAGGGCCATGATCCGGGGTGGCCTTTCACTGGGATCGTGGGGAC | 0.331 |
| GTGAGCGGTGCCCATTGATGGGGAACATCTTCCCCCTCTTCCTTGCCCCACCAGCTCACCTTCCCGGGTTATTTGCAGATAGGAAAATAAATAAAGCCGGCATTCGTTAACGATGAATCATGGCATACTGCCAGAGCAAACAGATCTAACATGGTCCTTTGGCGACGCCAGGCTCCGGGAGAGCAAAGCACCGTGTCAGGGCCATGATCCGGGGTGGCCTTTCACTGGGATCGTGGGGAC | 0.386 |
| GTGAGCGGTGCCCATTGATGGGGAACTAAAAGCATCCTGTGAATCAAAAGAAGATGGCAGATTTTCTGAATACTACTAAGGACTTCATTTAGCATATGCACAATCCTATTAAAAGAAAAAGTAAACAAGTAAATAAGCAAAAATGTATTATCATCCTTCCTGTGTCAAGAGAGTACTCCATTTATACAGCCATAGAAAACTGCAATGAAGATAGGTAATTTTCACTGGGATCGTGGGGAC | 0.423 |
| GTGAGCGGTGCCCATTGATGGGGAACGAAAGAAGATCAGTATACATTTGAAGTACAGTAACTTGAGCATATCTTTCCTATTCATCTCACTGAACTTGGATTTCTCTAAATATGGCAATGTAAACAGGCAAATTTTAGATTACTCAACAATCTCTACAGACACTTTAAATTCAAGTACATTTACTCTGTGTAGAGGAAGCACATGTCTAATAAAAGCCTTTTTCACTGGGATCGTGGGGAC | 0.218 |
| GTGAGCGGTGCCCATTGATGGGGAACTTATTTTGATAACATCTCCTTTTCATTAGAACCTTCCTCTCTAGTCCCTCTATTTCAATCTTTAATGTTGTTCTTTGTGCTGTTTCATGCCTTAGATTACATTCTTACACACACACACCCCATTCCTGGAATTTCCCTCCTAGTCGTCTCTGCCTGAAAAAAAACCCTACTAACCCTTTGAGGCCAGCTCAGATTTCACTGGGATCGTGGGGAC | 0.0138 |
| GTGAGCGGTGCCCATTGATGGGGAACCTGAATCCGCCTTCTGTCCCACACCCAACTCCTGCTCTGCCTCTGCAGCCACCTGCAGGCTCTCAGCGCACTCCTCAAAATCTATTTCTGCTGAGATTACCCAACACCACCTGCAGGAAACTCCCTTGAAATTCCCAGGCCTTTCCCAGAGTTCCTCAGTTCCTTTTCTTAAAATTCCTGCTGTCCCCAAAGATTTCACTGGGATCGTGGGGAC | -0.0805 |
| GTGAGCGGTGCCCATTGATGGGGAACTGAACAGATTAGCTGATCTCTAATGGCCCTAGGAGAAGATCTTGTATTGCTTCAAAATCTTTTCTGATTCTCATCACTCAACCTTCTTGGCTATGTAATCTAAGGAAGCTTTCCTTTTGTTTTCCAGACGTTTGGAAAACAAAATTTTCCAGAGCTGTGCATCTGCCAGGAAATGTTTCTTTTAACCTGATATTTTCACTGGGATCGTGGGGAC | -0.0504 |
| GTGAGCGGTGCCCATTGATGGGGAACTCCTTTATCCCAACATGTTTATACAGACAAAACCAGGTTAAAATCGACACAAGGTCAAAAGAGGAAGGTCTTGAAATGGGGAGACGTCACAAAATAAACATGAAGTCTTGTGTACAAGCATCTGCAGAAGAGTTCAGCCTCACCACTTGGGTAATGCTGTTGGAATGTGGTCTGGGTTCACTGTATTTGAATGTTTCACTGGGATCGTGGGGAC | 0.366 |

Set 2 — effect on: cell-free assay; technique: competition with immobilised ligand; tested at: 1 µM
SMILES: O=C(NC[C@@H]1[C@H]2CN(C(=O)OCc3cc(C(F)(F)F)cc(C(F)(F)F)c3)C[C@@H]12)c1ccc2[nH]nnc2c1
| target | remaining binding [%] |
| --- | --- |
| ACVRL1 (Homo sapiens, UniProt P37023) | 100 |
| Ribosomal protein S6 kinase alpha-6, N-terminal kinase domain (RPS6KA6, Homo sapiens, UniProt Q9UK32) | 67 |
| COQ8A (Homo sapiens, UniProt Q8NI60) | 100 |

Set 3 — SMILES: O=C1c2ccccc2-c2nc3nnnn3nc21; effect on: enzyme activity; mode: inhibitor; tested at: 0.5 µM; relative to: control
| target | remaining activity [%] |
| --- | --- |
| MAPK3 (Homo sapiens, UniProt P27361) | 87 |
| WEE1 (Homo sapiens, UniProt P30291) | 70.9 |
| GSK3B (Homo sapiens, UniProt P49841) | 83.5 |
| NEK6 (Homo sapiens, UniProt Q9HC98) | 96.3 |
| ULK2 (Homo sapiens, UniProt Q8IYT8) | 105 |
| MAP3K5 (Homo sapiens, UniProt Q99683) | 106 |
| NEK1 (Homo sapiens, UniProt Q96PY6) | 46.3 |
| FRK (Homo sapiens, UniProt P42685) | 33.9 |
| FGFR1 (Homo sapiens, UniProt P11362) | 24.2 |
| EPHA3 (Homo sapiens, UniProt P29320) | 81.6 |
| RPS6KA2 (Homo sapiens, UniProt Q15349) | 89.1 |
| GRK7 (Homo sapiens, UniProt Q8WTQ7) | 78.1 |
| LCK (Homo sapiens, UniProt P06239) | 70.5 |

Single results of other studies — cell line: A-375; tested at: 100 µM; time: 18 h
| SMILES | viability [%] |
| --- | --- |
| CCC1=C(C)CN(C(=O)NCCc2ccc(S(=O)(=O)NC(=O)N[C@H]3CC[C@H](C)CC3)cc2)C1=O | 105 |
| N=C(N)N | 93 |
| C[N+](C)(C)CCOC(N)=O | 101 |
